Measured values from different studies.
Compare with care: the assays were run in different laboratories. ± marks the error that the study gave.
Target: Cytochrome P450 2C9 (CYP2C9, Homo sapiens, UniProt P11712)
UniProt P11712, sequence (whole entry, looked up): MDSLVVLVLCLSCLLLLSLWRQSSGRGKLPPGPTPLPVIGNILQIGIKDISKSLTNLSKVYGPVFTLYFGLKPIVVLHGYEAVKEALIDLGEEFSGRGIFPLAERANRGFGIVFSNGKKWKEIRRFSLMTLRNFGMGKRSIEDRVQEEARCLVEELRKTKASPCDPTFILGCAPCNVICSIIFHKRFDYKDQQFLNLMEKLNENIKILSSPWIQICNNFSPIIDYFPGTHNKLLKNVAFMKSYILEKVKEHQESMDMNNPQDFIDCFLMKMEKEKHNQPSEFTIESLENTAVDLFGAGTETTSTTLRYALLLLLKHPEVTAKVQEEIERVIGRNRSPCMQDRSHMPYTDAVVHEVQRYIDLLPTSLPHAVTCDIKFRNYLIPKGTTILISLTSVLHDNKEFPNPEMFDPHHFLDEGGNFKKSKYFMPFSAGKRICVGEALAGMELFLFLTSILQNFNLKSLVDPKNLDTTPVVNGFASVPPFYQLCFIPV

CN(C(=O)n1cnc(-c2ccc[n+]([O-])c2)c1)C1CCCCC1 — inhibition (enzyme activity, inhibitor; pooled human liver microsomes; 0.1 to 30 µg/mL): no effect
C=CC(=O)Nc1cc(Nc2nccc(-c3cn(C)c4ccccc34)n2)c(OCC(F)(F)F)nc1N(C)CCNC — intrinsic clearance (substrate depletion; recombinant human CYP; 1 µM): 0.3 µL/min/pmol
N#C[C@H](C[C@@H]1CCCNC1=O)NC(=O)[C@H](CC1CC1)NC(=O)c1cc2cccc(Cl)c2[nH]1 — fraction metabolised (ISEF abundance scaling; 2 µM, pH 7.4): < 1%
COc1cc(O)c(CC=C(C)C)c2c1C(=O)CC(c1ccc(O)cc1)O2 (centres unmarked) — inhibition (enzyme activity, inhibitor; human liver microsomes; 1 µM, pH 7.4, together with: tolbutamide): 31.6 ± 8%
CC(C)=CCc1cc2c(cc1O)O[C@H](c1ccc(O)cc1)CC2=O — CLint (phase I metabolism, substrate; recombinant enzyme; pH 7.4): 108 µL/min/mg
Cc1cc(C)c(CNC(=O)c2cc(Cl)c3c(c2C)O[C@@](C)([C@H]2CC[C@H](N(C)C)CC2)O3)c(=O)[nH]1 — CLint (recombinant human CYP2C9; 0 and 30 min): 0.00168 µL/min/pmol
CC(C)=CCc1c(O)cc2c(c1O)C(=O)C[C@@H](c1ccc(O)cc1)O2 — inhibition (10 µM, pH 7.4): 63.8 ± 2%
C[C@@H](c1ccc2nccn2c1)n1nnc2ncc(-c3cnn(C)c3)nc21 — time-dependent inhibition (human liver microsomes; 10 and 50 µM, 30 min preincubation, pH 7.4, together with: ± NADPH): < 20%
COc1cc(O)c(CC=C(C)C)c(O)c1C(=O)/C=C/c1ccc(O)cc1 — inhibition (enzyme activity, inhibitor; human liver microsomes; 1 µM, pH 7.4, together with: tolbutamide): < 10%
CCCCC1=NC2(CCCC2)C(=O)N1Cc1ccc(-c2ccccc2S(=O)(=O)Nc2noc(C)c2C)c(COCC)c1 — intrinsic clearance (substrate; human liver microsomes): 0.212 µL/min/pmol
CCc1cc(/C(C)=N/OCc2ccc(C3CCCCC3)c(C(F)(F)F)c2)ccc1CN1CC(C(=O)O)C1 — CYP2C9-mediated clearance (population PK; human, CYP2C9*1/*3, plasma): 1.38 L/h

Excerpt of the above:
CCCCC1=NC2(CCCC2)C(=O)N1Cc1ccc(-c2ccccc2S(=O)(=O)Nc2noc(C)c2C)c(COCC)c1 — intrinsic clearance (substrate; human liver microsomes): 0.212 µL/min/pmol
